Measurements collected from several papers.
Each line is one published result; not all experiments were run side by side.
UCHL1: Ubiquitin carboxyl-terminal hydrolase isozyme L1 (UCHL1, Homo sapiens, UniProt P09936)
UniProt P09936, sequence (whole entry, looked up): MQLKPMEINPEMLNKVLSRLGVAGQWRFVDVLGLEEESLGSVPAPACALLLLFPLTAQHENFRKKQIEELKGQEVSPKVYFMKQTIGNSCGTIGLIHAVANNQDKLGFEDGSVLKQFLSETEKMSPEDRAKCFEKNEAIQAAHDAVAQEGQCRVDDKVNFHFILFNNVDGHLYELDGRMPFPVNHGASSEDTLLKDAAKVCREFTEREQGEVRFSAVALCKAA

Cn1c(C(F)(F)F)cc(=O)n(-c2cc(Oc3cccnc3OCC(=O)O)c(Cl)cc2F)c1=O  Tmax (beagle dog, female, plasma; oral capsule, 100 mg/kg/day epyrifenacil, day 1, 90-day study): 3.5 h
C=CCn1c(=O)c2cnc(Nc3ccc(N4CCN(C)CC4)cc3)nc2n1-c1cccc(C(C)(C)O)n1  Tmax (human, plasma; oral, 125 mg twice daily, -5-day lead-in, monotherapy lead-in): 2.1 h
COc1ccc(C[C@@H](C)[C@@H](C)Cc2ccc(OC)c(OC)c2)cc1OC  Tmax (beagle dog female, plasma; oral, 1000 mg/kg/day, day 1, median): 1 h
CC#Cc1cncc(-c2ccc3c(c2)[C@@]2(N=C(C)C(N)=N2)[C@]2(CC[C@H](OC)CC2)C3)c1  Tmax (beagle dogs, both sexes, plasma; oral, 0.48, 3.4 or 24 µmol/kg daily, 2 weeks): 2 h
COc1cc(C=C(C#N)C(=O)Nc2ccc3c(c2)OCCO3)ccc1O  labelling (UCHL1; covalent, intact protein LC-MS; 12.5 µM): 14.9%
CCN1CCN(Cc2ccc(Nc3ncc(F)c(-c4cc(F)c5nc6n(c5c4)[C@H](C)CCC6)n3)nc2)CC1  Tmax (human, plasma; 400 mg multiple dosing, median): 6.97 h
C=CC(=O)NC1CCN(c2ncc3ncnc(Nc4ccc(Oc5ccc6c(c5)ncn6C)c(C)c4)c3n2)CC1  Tmax (male beagle dog, plasma; oral, 3 mg/kg, pentagastrin pretreatment): 4 h
CCn1cc(C(=O)N2CCOCC2)c(=O)c2cc(NC3Cc4ccccc4C3)cnc21  Tmax (human, fed; oral suspension, 2000 mg/day twice daily, day 8, median): 3 h
Cl.[2H]C([2H])([2H])CC(=O)c1cnc(NC(=O)C2CC2)cc1Nc1cccc(-c2ncn(C([2H])([2H])[2H])n2)c1OC  Tmax (human, fed, plasma; oral, 25 mg, single dose, liquid formulation): 4 h
C=CCNC(=O)C(C#N)=Cc1cccc(C(F)(F)F)c1  labelling (UCHL1; covalent, intact protein LC-MS; 12.5 µM): 17.5%
Cc1nc(-c2cnc(NC(C)C)n(C)c2=O)ccc1Oc1ccnc(-c2cnn(C)c2)c1  Tmax (Beagle dog, male, plasma; oral, 30 mg/kg, crossover study, mean): 1.33 h
OC(CCN1CCCCC1)(c1ccccc1)C1CC2C=CC1C2 (stereo not drawn)  EC50 (Toxoplasma gondii; parasite growth; HFF, bradyzoite, glutamine-induced): 34 µM

Excerpt of the above:
C=CCn1c(=O)c2cnc(Nc3ccc(N4CCN(C)CC4)cc3)nc2n1-c1cccc(C(C)(C)O)n1  Tmax (human, plasma; oral, 125 mg twice daily, -5-day lead-in, monotherapy lead-in): 2.1 h
